Measured values of several laboratories.
Protocols differ between the studies behind these lines. “And” joins repeats or separate records; there may be more than shown. ± gives the spread as reported.
B1: BRAF kinase 448-723 K723G/P722S/S720E/L716E/S713E/Q709R/L706S/A688R/Y673S/N661V/K630S/V600E/L588N/Q562R (Homo sapiens, UniProt P15056); sequence looked up; chain DDWEIPDGQITVGQRIGSGSFGTVYKGKWHGDVAVKMLNVTAPTPQQLQAFKNEVGVLRKTRHVNILLFMGYSTKPQLAIVTQWCEGSSLYHHLHASETKFEMKKLIDIARQTARGMDYLHAKSIIHRDLKSNNIFLHEDNTVKIGDFGLATEKSRWSGSHQFEQLSGSILWMAPEVIRMQDSNPYSFQSDVYAFGIVLYELMTGQLPYSNINVRDQIIFMVGRGSLSPDLSKVRSNCPKRMKRLMAECLKKKRDERPSFPRILAEIEELARELSG
B2: EFR3A 721-791 (Homo sapiens, UniProt Q14156); chain SNTEEITFEALKKAIDTSGMEEQEKEKRRLVIEKFQKAPFEEIAAQCESKANLLHDRLAQILELTIRPPPS
B3: C1S 438-688 S632A (Homo sapiens, UniProt P09871); chain IIGGSDADIKNFPWQVFFDNPWAGGALINEYWVLTAAHVVEGNREPTMYVGSTSVQTSRLAKSKMLTPEHVFIHPGWKLLEVPEGRTNFDNDIALVRLKDPVKMGPTVSPICLPGTSSDYNLMDGDLGLISGWGRTEKRDRAVRLKAARLPVAPLRKCKEVKVEKPTADAEAYVFTPNMICAGGEKGMDSCKGDAGGAFAVQDPNDKTKFYAAGLVSWGPQCGTYGLYTRVKNYVDWIMKTMQENSTPRED
B4: IgG H:S99A; V domains shown; VH QVQLVQSGAEVKKPGASVKVSCKASGYTFTNYGLSWVRQAPGQGLEWMGWISANNGDTNYGQEFQGRVTMTTDTSTSTAYMELRSLRSDDTAVYYCARDSSSAWARWFFDLWGRGTLVTVSS; VL SYVLTQPPSVSVAPGKTARITCGGNIIGSKLVHWYQQKPGQAPVLVIYDDGDRPSGIPERFSGSNSGNTATLTISRVEAGDEADYYCQVWDTGSDPVVFGGGTKLTVL
B5: LLGL2 13-978 (Homo sapiens, UniProt Q6P1M3); phosphorylated; chain RERLKRDLFQFNKTVEHGFPHQPSALGYSPSLRILAIGTRSGAIKLYGAPGVEFMGLHQENNAVTQIHLLPGQCQLVTLLDDNSLHLWSLKVKGGASELQEDESFTLRGPPGAAPSATQITVVLPHSSCELLYLGTESGNVFVVQLPAFRALEDRTISSDAVLQRLPEEARHRRVFEMVEALQEHPRDPNQILIGYSRGLVVIWDLQGSRVLYHFLSSQQLENIWWQRDGRLLVSCHSDGSYCQWPVSSEAQQPEPLRSLVPYGPFPCKAITRILWLTTRQGLPFTIFQGGMPRASYGDRHCISVIHDGQQTAFDFTSRVIGFTVLTEADPAATFDDPYALVVLAEEELVVIDLQTAGWPPVQLPYLASLHCSAITCSHHVSNIPLKLWERIIAAGSRQNAHFSTMEWPIDGGTSLTPAPPQRDLLLTGHEDGTVRFWDASGVCLRLLYKLSTVRVFLTDTDPNENFSAQGEDEWPPLRKVGSFDPYSDDPRLGIQKIFLCKYSGYLAVAGTAGQVLVLELNDEAAEQAVEQVEADLLQDQEGYRWKGHERLAARSGPVRFEPGFQPFVLVQCQPPAVVTSLALHSEWRLVAFGTSHGFGLFDHQQRRQVFVKCTLHPSDQLALEGPLSRVKSLKKSLRQSFRRMRRSRVSSRKRHPAGPPGEAQEGSAKAERPGLQNMELAPVQRKIEARSAEDSFTGFVRTLYFADTYLKDSSRHCPSLWAGTNGGTIYAFSLRVPPAERRMDEPVRAEQAKEIQLMHRAPVVGILVLDGHSVPLPEPLEVAHDLSKSPDMQGSHQLLVVSEEQFKVFTLPKVSAKLKLKLTALEGSRVRRVSVAHFGSRRAEDYGEHHLAVLTNLGDIQVVSLPLLKPQVRYSCIRREDVSGIASCVFTKYGQGFYLISPSEFERFSLSTKWLVEPRCLVDSAETKNHRPGNGAGPKKAPSRARNSGTQSDGEEKQPGLVMER
B6: TGM4 (Heligmosomoides polygyrus); chain GCMPFSDETASYKYLTERSRNDETPAQNDSSGAYPDHTHVKRFCKGLHGEEKTGRYVGICLGSEWVYYQGVQECQDRRCSPLPTNDTVTYEYLKATVNAGINFNITVHPDASGKYPELTYIKRICKNFPADSKVQGHIIGMCYNAEWRFSSTPTCPPSGCPPLPDDGIVFYEYYGYAGNRHTVGRAVSKDSSGNYPPQTHARRRCRALSQKADPGEFVGICYKSGTTGESHWDYYSHIRKCPDPRCKPLETNVSVHYEYFTMTNETGRKEGTPAEVDKGGKYPQHTCVRKFCDKSPYTCSVKGPIFGECLDGQWNFTALDECLNARGCNSDDLFDKLGFEGVMVREEEGSDSYKDDFVRFYATGSKVNAECKGKTVQLECSDGEWHDPGTKTVHRCTKEGIRAL
B7: Tgfbr3l 36-211 (Mus musculus, UniProt D3YZZ2); sequence looked up; chain RRPLFSLELSDAEDAFPRRAGPLEVPADSHVFVQAALARPSPRWGLALHRCSVTPSSRPTLGPALVLLRGGCPADDSVSFSPPPRPDAASVSRFSFRLRPVFNASVQFLHCQISRCRRRSSHHRRAVRLTPVPLTPPAPLRCLPQDEACAGSSLSLGTDSPHLHMLTQPIVVTIPR
B8: TEPSIN L438S/W444S (Homo sapiens, UniProt Q96N21); chain MAAAPPLRDRLSFLHRLPILLKGTSDDDVPCPGYLFEEIAKISHESPGSSQCLLEYLLSRLHSSSGHGKLKVLKILLYLCSHGSSFFLLILKRNSAFIQEAAAFAGPPDPLHGNSLYQKVRAAAQDLGSTLFSDTVLPLAPSQPLGTPPATGMGSQARPHSTLQGFGYSKEHGRTAVRHQPGQAGGGWDELDSGPSSQNSSQNSDLSRVSDSGSHSGSDSHSGASREPGDLAERVEVVALSDCQQELSLVRTVTRGPRAFLSREEAQHFIKACGLLNCEAVLQLLTCHLRGTSECTQLRALCAIASLGSSDLLPQEHILLRTRPWLQELSMGSPGPVTNKATKILRHFEASCGQLSPARGTSAEPGPTAALPGPSDLLTDAVPLPGSQVFLQPLSSTPVSSRSPAPSSGMPSSPVPTPPPDASPIPAPGDPSEAEARSAESRRSRPERIPGGTDSPKRGPSSCAWSRDSLFAGMELVACPRLVGAGAAAGESCPDAPRAPQTSSQRTAAKEPPGSEPSAFAFLNA
Sequence of UniProt Q64663 (whole entry, unmodified, looked up): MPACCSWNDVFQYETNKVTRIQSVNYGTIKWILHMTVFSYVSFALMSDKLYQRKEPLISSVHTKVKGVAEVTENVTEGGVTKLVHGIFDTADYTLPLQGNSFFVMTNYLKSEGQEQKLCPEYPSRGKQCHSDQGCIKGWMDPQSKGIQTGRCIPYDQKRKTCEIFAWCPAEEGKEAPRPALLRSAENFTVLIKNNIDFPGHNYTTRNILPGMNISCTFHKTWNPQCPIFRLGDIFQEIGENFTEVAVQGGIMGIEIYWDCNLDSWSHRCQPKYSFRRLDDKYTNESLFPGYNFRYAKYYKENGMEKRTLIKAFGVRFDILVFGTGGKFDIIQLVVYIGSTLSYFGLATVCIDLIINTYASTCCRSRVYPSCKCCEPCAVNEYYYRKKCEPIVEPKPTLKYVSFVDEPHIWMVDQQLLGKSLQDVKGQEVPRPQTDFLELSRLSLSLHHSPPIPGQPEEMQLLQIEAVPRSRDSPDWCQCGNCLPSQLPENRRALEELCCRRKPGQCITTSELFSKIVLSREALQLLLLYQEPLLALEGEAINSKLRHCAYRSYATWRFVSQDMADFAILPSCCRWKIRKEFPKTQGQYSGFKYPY
Sequence of UniProt P05155 (whole entry, unmodified, looked up): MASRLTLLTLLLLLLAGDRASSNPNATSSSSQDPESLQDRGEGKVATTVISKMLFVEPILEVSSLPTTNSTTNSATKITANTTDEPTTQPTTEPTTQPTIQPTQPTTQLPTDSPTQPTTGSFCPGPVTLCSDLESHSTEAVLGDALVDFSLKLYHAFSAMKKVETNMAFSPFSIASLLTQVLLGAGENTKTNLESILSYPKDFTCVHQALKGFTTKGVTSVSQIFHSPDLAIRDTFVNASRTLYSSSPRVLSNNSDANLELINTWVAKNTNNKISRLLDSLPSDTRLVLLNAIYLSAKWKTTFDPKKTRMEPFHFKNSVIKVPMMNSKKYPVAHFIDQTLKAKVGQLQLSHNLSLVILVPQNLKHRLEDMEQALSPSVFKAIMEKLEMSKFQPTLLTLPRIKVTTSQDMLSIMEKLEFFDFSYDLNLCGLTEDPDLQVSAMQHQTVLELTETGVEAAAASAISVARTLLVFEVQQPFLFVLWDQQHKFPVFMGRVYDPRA
Sequence of UniProt P05111 (whole entry, looked up): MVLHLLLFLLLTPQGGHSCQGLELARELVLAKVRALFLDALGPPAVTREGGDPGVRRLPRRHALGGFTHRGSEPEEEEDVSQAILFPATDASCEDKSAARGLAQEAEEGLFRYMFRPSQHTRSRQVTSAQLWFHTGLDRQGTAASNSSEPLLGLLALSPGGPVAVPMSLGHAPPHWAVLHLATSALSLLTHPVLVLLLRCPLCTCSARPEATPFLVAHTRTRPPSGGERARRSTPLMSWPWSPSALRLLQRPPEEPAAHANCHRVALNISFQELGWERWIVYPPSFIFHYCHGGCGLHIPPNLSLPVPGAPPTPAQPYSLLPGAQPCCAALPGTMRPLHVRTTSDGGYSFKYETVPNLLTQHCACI
Sequence of UniProt P38646 (whole entry, unmodified, looked up): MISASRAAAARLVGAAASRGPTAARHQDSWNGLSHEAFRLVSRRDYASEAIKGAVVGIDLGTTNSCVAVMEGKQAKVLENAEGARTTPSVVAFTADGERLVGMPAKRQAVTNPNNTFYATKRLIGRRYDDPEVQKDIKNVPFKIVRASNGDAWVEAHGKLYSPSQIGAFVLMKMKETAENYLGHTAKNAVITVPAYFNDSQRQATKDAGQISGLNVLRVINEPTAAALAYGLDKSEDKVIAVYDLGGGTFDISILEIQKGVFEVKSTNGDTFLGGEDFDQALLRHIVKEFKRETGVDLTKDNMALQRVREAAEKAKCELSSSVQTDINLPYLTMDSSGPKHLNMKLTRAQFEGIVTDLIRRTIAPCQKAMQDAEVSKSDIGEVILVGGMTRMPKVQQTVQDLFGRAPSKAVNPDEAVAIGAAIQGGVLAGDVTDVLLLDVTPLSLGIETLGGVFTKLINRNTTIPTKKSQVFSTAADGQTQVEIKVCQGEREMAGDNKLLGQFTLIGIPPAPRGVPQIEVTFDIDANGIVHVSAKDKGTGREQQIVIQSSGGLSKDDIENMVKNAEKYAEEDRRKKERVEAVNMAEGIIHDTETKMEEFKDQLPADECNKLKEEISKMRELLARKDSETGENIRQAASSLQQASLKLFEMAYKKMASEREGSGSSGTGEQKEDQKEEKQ

For `B1`, the koff was 0.00254 s⁻¹ (MAP2K1 (Homo sapiens, UniProt Q02750); BLI).
`colistin` has an MIC of ≤ 0.5 mg/L (Salmonella enterica serovar Uganda; broth microdilution; clinical isolate RKI-No 206/14).
The koff of `B2 (EFR3A 721-791)` is reported as 0.000258 s⁻¹ (TTC7A/FAM126A 1-308; BLI).
For `Peginesatide`, the EC50 was 1.51 nM (UT7/EPO; phosphorylation, agonist, item: phospho-p38; 10 min).
`B3 (C1S 438-688 S632A)` gave a koff of 0.0897 s⁻¹ (SERPING1 111-500 K328A/K329A (Homo sapiens, UniProt P05155); SPR; together with: Ca2+).
With `CALLLSAPRR (GOT2 (Gallus gallus); fluorescein label)` the koff was 0.00267 s⁻¹ (HSPA9 47-555 (Homo sapiens, UniProt P38646); FP; peptide).
For `B4 (IgG H:S99A)`, the koff was 0.000346 s⁻¹ (IL13 fragment (Homo sapiens); SPR; antibody).
For `11-deoxycorticosterone`, “rate constant k2” read 0.0116 ± 0.197 s⁻¹ (CYP11B2 (human); substrate binding, stopped-flow global kinetic fitting; purified enzyme; 3-state induced fit model, together with: 10-fold excess adrenodoxin).
`B5 (LLGL2 13-978)` gave a koff of 0.0107 s⁻¹ (PRKCI/PARD6B 1-596, activation loop phosphorylated; BLI; together with: AMP-PNP).
`BzATP` has a normalized current of 0.0519 and 0.0746 and 0.0719 (P2X purinoceptor 7 (P2rx7, Rattus norvegicus, UniProt Q64663, I214A/Q143A/R125A); ion current, agonist, two-electrode voltage clamp; Xenopus oocytes; 33 µM).
The koff of `B6 (TGM4)` is reported as 0.84 s⁻¹ (TGFBR2 extracellular domain (Homo sapiens); SPR).
The koff of `B7 (Tgfbr3l 36-211)` is reported as 0.014 s⁻¹ (inhibin B mature (UniProt P05111); SPR).
`B8 (TEPSIN L438S/W444S)` has a koff of 0.083 s⁻¹ and 0.084 s⁻¹ and 0.086 s⁻¹ and 0.082 s⁻¹ (MAP1LC3B fragment (Homo sapiens); BLI).

Repeated from above:
The koff of `B2 (EFR3A 721-791)` is reported as 0.000258 s⁻¹ (TTC7A/FAM126A 1-308; BLI).
